Measurements from different studies.
Each line is one published result; not all experiments were run side by side.

SMILES	organism	test	system	conditions	MIC
Cc1ccc(CCC(=O)Nc2nnc(S(N)(=O)=O)s2)cc1	Bifidobacterium adolescentis	–	HM-633	–	> 784 µM
CC1(C)SC2C(NC(=O)C(NC(=O)C3=C(O)C(Cc4ccccc4)NC3=O)c3ccccc3)C(=O)N2C1C(=O)O (stereo not drawn)	Escherichia coli	broth microdilution	ATCC 25922 wild type	no clavulanic acid	6.25 µg/mL
N=C(N)c1ccc(OCCCCCOc2ccc(C(=N)N)cc2)cc1	Escherichia coli	–	BW25113	compound alone, vancomycin checkerboard	200 µg/mL
CC1(C)S[C@@H]2[C@H](NC(=O)[C@H](N)c3ccccc3)C(=O)N2[C@H]1C(=O)O	Pseudomonas aeruginosa	–	clinical isolate RKI-No_480/15	–	> 16 µg/mL
N=C(N)c1ccc(OCc2cc(COc3ccc(C(=N)N)cc3)cc(-c3ccccc3)c2)cc1	Escherichia coli	–	mcr-1 polymyxin-resistant	20 h, compound alone	100 µg/mL
OC(Cn1cncn1)(Cn1cncn1)c1ccc(F)cc1F	Candida albicans	broth microdilution	348	24 h, compound alone	1 µg/mL
C=CC(=O)ON=C1C=CC(=C(C#N)c2ccccc2)C=C1	Kluyveromyces marxianus	broth dilution	ATCC 204093	48 h, 37 °C	16 µg/mL
COc1cc(CNc2ccc(C(=O)O)cc2)ccc1O	Salmonella enterica	–	–	–	64 µg/mL
CNC(C)C1CCC(N)C(OC2C(N)CC(N)C(OC3OCC(C)(O)C(NC)C3O)C2O)O1 (stereo not drawn)	Pseudomonas aeruginosa	–	clinical isolate RKI-No_578/15	–	4 µg/mL
COc1ccc(CNc2ccc(C(=O)O)cc2)cc1OC	Salmonella enterica	–	–	–	64 µg/mL
N#CC(=C1C=CC(=NOC(=O)OCc2ccccc2)C=C1)c1ccccc1	Kluyveromyces marxianus	broth dilution	ATCC 204093	48 h, 37 °C	64 µg/mL
OC(Cn1cncn1)(Cn1cncn1)c1ccc(F)cc1F	Candida tropicalis	–	CT2	–	2 µg/mL
N=C(N)c1ccc(OCCC(CCOc2ccc(C(=N)N)cc2)c2ccccc2)cc1 (stereo not drawn)	Escherichia coli	–	BW25113	compound alone, novobiocin checkerboard	> 200 µg/mL
CO[C@H]1/C=C/O[C@@]2(C)Oc3c(C)c(O)c4c(O)c(c(/C=N/N5CCN(C)CC5)c(O)c4c3C2=O)NC(=O)/C(C)=C\C=C\[C@H](C)[C@H](O)[C@@H](C)[C@@H](O)[C@@H](C)[C@H](OC(C)=O)[C@@H]1C	Mycobacterium marinum	–	–	–	10 µM
OC(Cn1cncn1)(Cn1cncn1)c1ccc(F)cc1F	Zygosaccharomyces bailii	broth microdilution	MYA-4549, Sabouraud dextrose broth	72 h	> 128 µM
CCON=C1C=CC(=C(C#N)c2ccccc2)C=C1	Kluyveromyces marxianus	broth dilution	ATCC 204093	48 h, 37 °C	256 µg/mL
COc1cccc(CNc2ccc(C(=O)O)cc2)c1	Salmonella enterica	–	–	–	64 µg/mL
COc1cc(Cc2cnc(N)nc2N)cc(OC)c1OC	Salmonella enterica	–	–	20 h, pH 5.5	> 128 µg/mL
O=C(O)c1cn(C2CC2)c2cc(N3CCNCC3)c(F)cc2c1=O	Salmonella enterica	broth microdilution	Kentucky, susceptible	–	0.016 µg/mL
CCCCCOc1ccc(-c2ccc(-c3ccc(C(=O)N[C@H]4C[C@@H](O)[C@@H](OCC[N+](C)(C)C)NC(=O)[C@@H]5[C@@H](O)[C@@H](C)CN5C(=O)[C@H]([C@@H](C)O)NC(=O)[C@H]([C@H](O)[C@@H](O)c5ccc(O)cc5)NC(=O)[C@@H]5C[C@@H](O)CN5C(=O)[C@H]([C@@H](C)O)NC4=O)cc3)cc2)cc1	Candida albicans	CLSI broth microdilution	98-210	–	0.016 µg/mL
O=C(O)c1ccc(NCc2cccc(O)c2)cc1	Salmonella enterica	–	–	–	64 µg/mL
CC1(C)SC2C(NC(=O)C(NC(=O)C3=C(O)C(c4ccccc4)NC3=O)c3ccccc3)C(=O)N2C1C(=O)O (stereo not drawn)	Escherichia coli	broth microdilution	ATCC 25922 wild type	no clavulanic acid	12.5 µg/mL
N=C(N)c1ccc(OCc2cccc(COc3ccc(C(=N)N)cc3)c2)cc1	Escherichia coli	–	BW25113	compound alone, novobiocin checkerboard	> 200 µg/mL
O=C(O)c1ccc(NCc2cccc([N+](=O)[O-])c2)cc1	Salmonella enterica	–	–	–	64 µg/mL
C#CCOC(=O)ON=C1C=CC(=C(C#N)c2ccccc2)C=C1	Kluyveromyces marxianus	broth dilution	ATCC 204093	48 h, 37 °C	8 µg/mL
COc1ccccc1CNc1ccc(C(=O)O)cc1	Salmonella enterica	–	–	–	64 µg/mL
NOCC(=O)O	Candida tropicalis	–	CT2	–	1000 µg/mL
